Published values of several laboratories.
Each line is one published result; not all experiments were run side by side. ± marks the error that the study gave.
OPRK1: Kappa-type opioid receptor (OPRK1, Homo sapiens, UniProt P41145)

Chains of the proteins cited; added tags and fusions are not shown.
UniProt P21709, whole entry, looked up: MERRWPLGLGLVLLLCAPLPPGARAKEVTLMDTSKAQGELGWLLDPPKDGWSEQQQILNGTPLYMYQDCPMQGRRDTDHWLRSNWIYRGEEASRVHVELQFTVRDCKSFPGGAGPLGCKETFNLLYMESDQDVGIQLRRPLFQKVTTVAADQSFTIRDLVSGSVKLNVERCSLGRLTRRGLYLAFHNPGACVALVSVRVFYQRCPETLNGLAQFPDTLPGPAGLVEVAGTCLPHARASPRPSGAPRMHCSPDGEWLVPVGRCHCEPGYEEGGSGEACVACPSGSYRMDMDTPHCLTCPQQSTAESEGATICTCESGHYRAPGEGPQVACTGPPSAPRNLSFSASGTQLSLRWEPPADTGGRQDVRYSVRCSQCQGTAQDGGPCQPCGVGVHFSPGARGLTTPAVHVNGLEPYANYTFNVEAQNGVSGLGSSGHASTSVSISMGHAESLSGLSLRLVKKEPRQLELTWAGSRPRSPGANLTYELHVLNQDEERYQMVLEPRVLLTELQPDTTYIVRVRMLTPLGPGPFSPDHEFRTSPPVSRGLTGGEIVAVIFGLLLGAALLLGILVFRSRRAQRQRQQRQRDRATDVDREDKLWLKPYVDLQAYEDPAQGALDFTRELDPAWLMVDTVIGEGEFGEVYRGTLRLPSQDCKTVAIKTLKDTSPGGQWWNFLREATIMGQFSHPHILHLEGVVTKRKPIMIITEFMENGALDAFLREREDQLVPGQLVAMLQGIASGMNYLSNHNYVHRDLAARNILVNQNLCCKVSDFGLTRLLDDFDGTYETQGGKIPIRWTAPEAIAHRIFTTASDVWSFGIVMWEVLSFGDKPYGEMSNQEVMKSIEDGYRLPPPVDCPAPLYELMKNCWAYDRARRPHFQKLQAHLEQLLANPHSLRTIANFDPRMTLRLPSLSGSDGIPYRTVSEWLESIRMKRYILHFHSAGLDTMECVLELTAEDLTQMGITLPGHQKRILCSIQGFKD
UniProt Q8WTQ7, whole entry: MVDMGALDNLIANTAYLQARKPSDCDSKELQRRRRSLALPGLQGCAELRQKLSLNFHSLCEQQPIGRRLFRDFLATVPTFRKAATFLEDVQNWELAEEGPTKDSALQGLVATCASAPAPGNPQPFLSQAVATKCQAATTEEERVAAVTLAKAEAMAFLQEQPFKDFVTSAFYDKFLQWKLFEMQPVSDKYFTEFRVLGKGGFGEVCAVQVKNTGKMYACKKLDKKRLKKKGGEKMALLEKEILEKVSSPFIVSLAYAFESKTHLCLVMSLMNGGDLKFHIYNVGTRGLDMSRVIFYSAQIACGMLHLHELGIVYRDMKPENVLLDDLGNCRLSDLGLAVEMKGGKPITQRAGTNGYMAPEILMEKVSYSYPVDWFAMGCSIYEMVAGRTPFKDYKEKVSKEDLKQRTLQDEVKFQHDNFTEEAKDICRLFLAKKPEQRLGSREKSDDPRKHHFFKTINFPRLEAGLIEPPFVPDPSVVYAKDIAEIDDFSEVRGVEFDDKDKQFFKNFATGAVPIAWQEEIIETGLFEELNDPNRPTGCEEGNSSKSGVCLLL

Substance	target	test	system	conditions	scale	quantity	result
CO[C@]12CC[C@@]3(C[C@@H]1[C@](C)(O)c1cc(C)cc(C)c1)[C@H]1Cc4ccc(O)c5c4[C@@]3(CCN1CC1CC1)[C@H]2O5	OPRK1	G-protein activation, agonist		10 µM	baseline: U-69593	stimulation	50 ± 6%
U-69593	OPRK1	G protein activation, agonist	CHO-hKOR cell membranes	unit not given	baseline: reference agonist	Δlog(τ/KA)	0
CN(C(=O)Cc1cccc2occc12)[C@H]1CC[C@@]2(CCCO2)C[C@@H]1N1CCCC1	OPRK1	agonist			baseline: U-50488 10 µM	Emax	105 ± 3.3%
CC#C/C(=N\OC[C@H]1COCCN1)c1ccc2ncnc(Nc3ccc(OCc4cccc(F)c4)c(Cl)c3)c2c1	Ephrin type-A receptor 1 (EPHA1, Homo sapiens, UniProt P21709)	kinase activity		10 µM		inhibition	16.9%
CO[C@]12CC[C@@]3(C[C@@H]1[C@](C)(O)c1ccccc1C)[C@H]1Cc4ccc(O)c5c4[C@@]3(CCN1CC1CC1)[C@H]2O5	OPRK1	G-protein activation, agonist		10 µM	baseline: U-69593	stimulation	90 ± 3%
ethoxymethyl salvinorin B	OPRK1	G protein activation, agonist		concentration not given	baseline: dynorphin A	log intrinsic relative activity	0.58 ± 0.1
CO[C@]12CC[C@@]3(C[C@@H]1[C@](C)(O)c1ccc(C(C)C)cc1)[C@H]1Cc4ccc(O)c5c4[C@@]3(CCN1CC1CC1)[C@H]2O5	OPRK1	G-protein activation, agonist		10 µM	baseline: U-69593	stimulation	34 ± 3%
C#Cc1ccc2c(c1)C(c1ccccc1F)=N[C@H](C)c1c(-c3nc(C(C)C)no3)ncn1-2	OPRK1	radioligand binding		concentration not given, primary screen, together with: [3H]U69593		inhibition	> 50%
CCN1CCN(Cc2ccc(NC(=O)c3ccc(C)c(/C=C/c4cnc5[nH]ccc5c4OC)c3)cc2C(F)(F)F)CC1	Rhodopsin kinase GRK7, with CDC37 (GRK7, Homo sapiens, UniProt Q8WTQ7)	inhibitor, cell-based kinome screen	human cells	5 µM	baseline: vehicle	log2 fold change	-0.172
CN(C(=O)Cc1ccc(Cl)c(Cl)c1)C1CCC2(CCCO2)CC1N1CCCC1 (centres unmarked)	OPRK1	agonist			baseline: U-50488 10 µM	Emax	102 ± 2.1%
CO[C@]12CC[C@@]3(C[C@@H]1[C@@](C)(O)C(C)(C)C)[C@H]1Cc4c(Cl)cc(O)c5c4[C@@]3(CCN1CC1CC1)[C@H]2O5	OPRK1	antagonist	CHO	concentration not given		antagonist activity	inhibited
